Published values gathered from unrelated publications.
Each line is one published result; not all experiments were run side by side. Values joined by “and” are separate records of one study, mostly repeats; a detail may differ.
STING1 H232R: Stimulator of interferon genes protein (STING1, Homo sapiens, UniProt Q86WV6, H232R)
Sequence of UniProt Q86WV6 (whole entry, unmodified, looked up): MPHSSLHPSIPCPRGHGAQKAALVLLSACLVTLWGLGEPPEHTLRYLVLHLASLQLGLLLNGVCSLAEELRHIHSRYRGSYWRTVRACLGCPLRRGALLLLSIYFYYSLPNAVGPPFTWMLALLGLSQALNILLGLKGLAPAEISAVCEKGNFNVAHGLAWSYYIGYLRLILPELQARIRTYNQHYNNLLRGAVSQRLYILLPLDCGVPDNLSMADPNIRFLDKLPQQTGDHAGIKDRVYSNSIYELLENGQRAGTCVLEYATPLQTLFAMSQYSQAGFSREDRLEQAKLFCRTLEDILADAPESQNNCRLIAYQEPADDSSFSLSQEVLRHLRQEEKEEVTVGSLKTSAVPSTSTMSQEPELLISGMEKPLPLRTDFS
MAPK8: Mitogen-activated protein kinase 8 (MAPK8, Homo sapiens, UniProt P45983)
Sequence of UniProt P46089 (whole entry, looked up): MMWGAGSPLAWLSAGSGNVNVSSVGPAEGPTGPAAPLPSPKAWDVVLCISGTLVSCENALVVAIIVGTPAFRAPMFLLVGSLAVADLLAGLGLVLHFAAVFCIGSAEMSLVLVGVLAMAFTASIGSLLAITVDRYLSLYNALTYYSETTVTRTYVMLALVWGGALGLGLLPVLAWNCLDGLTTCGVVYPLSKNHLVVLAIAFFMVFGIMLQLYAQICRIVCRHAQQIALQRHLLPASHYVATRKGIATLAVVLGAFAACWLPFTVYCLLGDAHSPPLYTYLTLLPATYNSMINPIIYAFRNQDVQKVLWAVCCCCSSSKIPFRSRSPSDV
Sequence of UniProt Q8H1R0 (whole entry, looked up): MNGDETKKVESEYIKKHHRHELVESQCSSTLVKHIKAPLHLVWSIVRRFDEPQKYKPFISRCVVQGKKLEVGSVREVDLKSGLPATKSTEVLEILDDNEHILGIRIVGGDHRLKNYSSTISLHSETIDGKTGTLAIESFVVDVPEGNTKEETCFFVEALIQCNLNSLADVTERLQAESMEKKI
Sequence of UniProt P45983 (whole entry, looked up): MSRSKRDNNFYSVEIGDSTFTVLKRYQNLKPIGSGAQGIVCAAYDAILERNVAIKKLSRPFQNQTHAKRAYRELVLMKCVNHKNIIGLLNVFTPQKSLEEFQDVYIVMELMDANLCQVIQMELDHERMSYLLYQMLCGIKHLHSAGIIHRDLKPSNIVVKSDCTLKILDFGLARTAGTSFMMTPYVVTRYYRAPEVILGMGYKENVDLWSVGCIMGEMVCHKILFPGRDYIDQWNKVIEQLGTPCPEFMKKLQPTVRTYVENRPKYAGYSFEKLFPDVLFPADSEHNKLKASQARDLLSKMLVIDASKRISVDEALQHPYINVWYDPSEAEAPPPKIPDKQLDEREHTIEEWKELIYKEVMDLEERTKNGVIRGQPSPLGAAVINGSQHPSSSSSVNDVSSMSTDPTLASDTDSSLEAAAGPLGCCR
Sequence of UniProt O75385 (whole entry, looked up): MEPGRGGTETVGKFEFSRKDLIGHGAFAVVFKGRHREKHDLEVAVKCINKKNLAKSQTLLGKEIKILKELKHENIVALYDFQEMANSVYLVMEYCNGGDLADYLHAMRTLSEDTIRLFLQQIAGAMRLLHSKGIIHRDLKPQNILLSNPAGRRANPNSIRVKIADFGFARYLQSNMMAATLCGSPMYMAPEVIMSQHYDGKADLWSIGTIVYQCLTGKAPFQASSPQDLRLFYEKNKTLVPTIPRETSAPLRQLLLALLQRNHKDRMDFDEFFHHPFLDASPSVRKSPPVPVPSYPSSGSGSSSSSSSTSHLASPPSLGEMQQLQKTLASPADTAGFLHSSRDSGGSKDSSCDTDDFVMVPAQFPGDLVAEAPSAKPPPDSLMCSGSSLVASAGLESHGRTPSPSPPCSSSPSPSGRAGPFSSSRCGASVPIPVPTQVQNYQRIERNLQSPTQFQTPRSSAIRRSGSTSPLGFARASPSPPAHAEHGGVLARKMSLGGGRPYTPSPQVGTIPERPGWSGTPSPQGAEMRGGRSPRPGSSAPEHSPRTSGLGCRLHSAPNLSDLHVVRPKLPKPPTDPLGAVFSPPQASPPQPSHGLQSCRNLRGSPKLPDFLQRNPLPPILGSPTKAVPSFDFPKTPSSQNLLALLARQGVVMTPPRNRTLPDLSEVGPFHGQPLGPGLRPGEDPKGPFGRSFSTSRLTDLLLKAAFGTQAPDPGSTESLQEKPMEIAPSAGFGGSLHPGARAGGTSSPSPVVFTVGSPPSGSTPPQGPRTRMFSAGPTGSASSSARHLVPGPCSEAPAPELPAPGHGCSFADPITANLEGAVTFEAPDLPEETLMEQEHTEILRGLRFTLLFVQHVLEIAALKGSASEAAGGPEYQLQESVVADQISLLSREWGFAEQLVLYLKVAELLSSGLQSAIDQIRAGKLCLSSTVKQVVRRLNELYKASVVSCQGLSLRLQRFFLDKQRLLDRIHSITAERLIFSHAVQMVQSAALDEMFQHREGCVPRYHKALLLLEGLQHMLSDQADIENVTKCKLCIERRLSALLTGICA
Sequence of UniProt O14950 (whole entry, looked up): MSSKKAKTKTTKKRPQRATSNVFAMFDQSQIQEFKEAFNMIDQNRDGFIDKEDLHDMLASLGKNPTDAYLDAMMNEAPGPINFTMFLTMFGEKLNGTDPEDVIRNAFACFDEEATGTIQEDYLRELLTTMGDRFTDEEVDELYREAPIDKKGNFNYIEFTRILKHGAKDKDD
Sequence of UniProt Q15910 (whole entry, looked up): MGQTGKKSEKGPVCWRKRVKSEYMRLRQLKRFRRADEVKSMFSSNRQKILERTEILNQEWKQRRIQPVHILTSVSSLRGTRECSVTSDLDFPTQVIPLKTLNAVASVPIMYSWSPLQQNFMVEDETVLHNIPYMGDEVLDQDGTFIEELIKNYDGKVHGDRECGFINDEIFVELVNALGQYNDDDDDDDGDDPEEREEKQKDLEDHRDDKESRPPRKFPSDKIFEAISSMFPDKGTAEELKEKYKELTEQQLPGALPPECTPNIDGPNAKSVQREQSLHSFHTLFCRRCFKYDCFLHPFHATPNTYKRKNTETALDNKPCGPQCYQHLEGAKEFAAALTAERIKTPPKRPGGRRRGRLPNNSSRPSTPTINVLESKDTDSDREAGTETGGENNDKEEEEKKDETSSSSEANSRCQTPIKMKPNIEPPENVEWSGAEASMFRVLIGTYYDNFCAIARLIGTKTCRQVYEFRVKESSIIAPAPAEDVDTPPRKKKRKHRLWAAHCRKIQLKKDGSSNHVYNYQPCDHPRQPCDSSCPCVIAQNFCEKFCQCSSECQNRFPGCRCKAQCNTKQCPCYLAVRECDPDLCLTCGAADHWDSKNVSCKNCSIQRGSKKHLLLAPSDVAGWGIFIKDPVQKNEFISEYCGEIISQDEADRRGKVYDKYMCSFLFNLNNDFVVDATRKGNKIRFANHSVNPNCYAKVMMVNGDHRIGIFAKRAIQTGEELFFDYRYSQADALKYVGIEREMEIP
Sequence of UniProt Q9HB29 (whole entry, looked up): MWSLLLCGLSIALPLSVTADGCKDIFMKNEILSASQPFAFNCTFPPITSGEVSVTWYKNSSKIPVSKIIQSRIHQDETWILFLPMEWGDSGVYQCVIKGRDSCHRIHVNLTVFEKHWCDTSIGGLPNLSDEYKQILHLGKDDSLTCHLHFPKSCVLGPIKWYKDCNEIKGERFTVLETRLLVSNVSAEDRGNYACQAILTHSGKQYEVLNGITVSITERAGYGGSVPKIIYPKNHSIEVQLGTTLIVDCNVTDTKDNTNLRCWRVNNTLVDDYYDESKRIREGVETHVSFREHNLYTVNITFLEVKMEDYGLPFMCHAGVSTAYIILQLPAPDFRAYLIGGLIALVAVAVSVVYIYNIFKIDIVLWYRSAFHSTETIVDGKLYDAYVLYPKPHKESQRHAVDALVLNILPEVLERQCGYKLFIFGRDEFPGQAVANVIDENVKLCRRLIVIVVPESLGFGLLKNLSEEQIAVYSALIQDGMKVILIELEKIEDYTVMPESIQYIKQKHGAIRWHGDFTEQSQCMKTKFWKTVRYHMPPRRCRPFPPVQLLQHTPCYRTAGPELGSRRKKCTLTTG
Sequence of UniProt Q6V1X1 (whole entry, looked up): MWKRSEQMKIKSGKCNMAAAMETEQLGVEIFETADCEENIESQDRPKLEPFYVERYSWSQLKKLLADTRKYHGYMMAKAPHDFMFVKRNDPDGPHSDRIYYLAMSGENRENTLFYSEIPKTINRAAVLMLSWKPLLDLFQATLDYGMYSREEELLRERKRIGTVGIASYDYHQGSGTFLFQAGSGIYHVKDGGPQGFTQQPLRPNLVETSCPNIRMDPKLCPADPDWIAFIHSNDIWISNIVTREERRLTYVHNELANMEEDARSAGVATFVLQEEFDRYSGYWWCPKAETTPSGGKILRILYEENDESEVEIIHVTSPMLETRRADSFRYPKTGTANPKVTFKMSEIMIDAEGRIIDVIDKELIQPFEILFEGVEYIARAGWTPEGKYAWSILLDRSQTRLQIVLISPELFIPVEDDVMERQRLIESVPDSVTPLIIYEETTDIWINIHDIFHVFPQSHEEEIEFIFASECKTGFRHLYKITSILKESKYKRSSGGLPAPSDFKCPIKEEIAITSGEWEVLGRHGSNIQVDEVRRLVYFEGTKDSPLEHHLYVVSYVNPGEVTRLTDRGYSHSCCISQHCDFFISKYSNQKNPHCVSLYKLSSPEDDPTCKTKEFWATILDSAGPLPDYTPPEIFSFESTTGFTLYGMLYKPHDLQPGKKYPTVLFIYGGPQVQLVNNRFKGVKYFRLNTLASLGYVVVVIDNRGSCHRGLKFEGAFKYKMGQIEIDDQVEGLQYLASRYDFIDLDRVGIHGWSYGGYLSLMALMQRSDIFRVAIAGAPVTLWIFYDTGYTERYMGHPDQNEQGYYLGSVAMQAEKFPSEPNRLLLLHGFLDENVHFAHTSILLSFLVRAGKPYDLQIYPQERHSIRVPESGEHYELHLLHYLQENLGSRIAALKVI

SMILES	tested on	test	system	conditions	scale	quantity	value
O=[N+]([O-])c1cc(Br)cc([N+](=O)[O-])c1NS(=O)(=O)c1ccc(Br)cc1	PYL10, with HAB1 (Arabidopsis thaliana, UniProt Q8H1R0)	antagonist		5 µM, with: ABA 5 µM	higher = more HAB1 activity	HAB1 phosphatase activity	0.087 a.u. and 0.081 a.u. and 0.085 a.u.
CN(Cc1ccccc1)C(=O)CN1CCN(CC(=O)[O-])CCN(Cc2cccc(C(=O)[O-])n2)CC1.[18F-].[Sc+3]			mouse, spleen	intravenous, 1 h		tracer uptake	0.98 %ID/g
C#Cc1ccc(C(=O)N[C@@H](CCCCNC(=O)c2ccc([N+](=O)[O-])o2)c2nc3ccccc3[nH]2)cc1	STING1 H232R	reporter gene, inhibitor	THP1-Dual KI-hSTING-R232	24 h, 1 h preincubation, with: diABZI 500 nM		EC50	16.3 µM
CC(C)C[C@H](NC(=O)[C@H](Cc1ccc(O)cc1)NC(=O)[C@@H](CCCNC(=N)N)NC(=O)[C@@H](CO)NC(=O)[C@H](Cc1ccccc1)NC(=O)[C@H](CC1CCCCC1)NC(=O)[C@H](CC(=O)O)NC(=O)CN1CCN(CC(=O)O)CCN(CC(=O)O)CCN(CC(=O)O)CC1)C(=O)N[C@@H](Cc1c[nH]c2ccccc12)C(=O)N[C@@H](CO)C(=O)O [copper-64 labelled]			human, small intestine	concentration not given, 1 h		activity concentration	2430 Bq/mL and 2130 Bq/mL and 2210 Bq/mL and 2010 Bq/mL and 3090 Bq/mL and 3040 Bq/mL
Nc1nc(-c2ccccc2)nc2[nH]nc(Nc3cccc(F)c3F)c12	HeLa Ohio			72 h		CC50	> 148 µM
O=C(N[C@@H](CCCCNC(=O)c1ccc([N+](=O)[O-])o1)c1nc2ccccc2[nH]1)c1ccc(-c2ccccn2)cc1	STING1 H232R	reporter gene, inhibitor	THP1-Dual KI-hSTING-R232	24 h, 1 h preincubation, with: diABZI 500 nM		EC50	5.3 µM
Fc1ccc(Nc2nc(NC3CCCCC3)c3cc(Br)ccc3n2)cc1F	Beta-2 adrenergic receptor (ADRB2, Homo sapiens, UniProt P07550, Q170L)	β-arrestin2 recruitment, antagonist, BRET		mutant Q170L	relative to: isoprenaline maximal response	maximal inhibition	-2.1%
Cc1ncsc1-c1ccc(C(C)NC(=O)C2CC(O)CN2C(=O)C(NC(=O)CCCCCCCCCCN2CCCC(Nc3ncc(Cl)c(Nc4ccccc4S(=O)(=O)C(C)C)n3)C2)C(C)(C)C)cc1 (stereo not shown)	22Rv1	RNA-seq, refers to: RIMBP3 mRNA		concentration not given	relative to: DMSO	log2 fold change	-6.21
CCCCCCCCCCCCC/C=C/C=O	Myosin regulatory light chain 12B (MYL12B, Homo sapiens, UniProt O14950)	competitive isoTOP-ABPP, refers to: MRLC2 cysteine peptide	Ramos soluble proteome	100 µM, with: iodoacetamide probe	relative to: DMSO over compound-treated, higher = stronger cysteine blockade	isoTOP-ABPP competition ratio	1
C[C@@H]1C[C@H](Nc2ccccc2)c2cc(F)ccc2N1C(=O)c1ccc([N+](=O)[O-])cc1	Ecdysone receptor (Aedes albopictus, UniProt Q9U3Y4)	ligand binding, inhibitor	intact cells	with: [3H]ponasterone A	direction not given	pIC50 Z-score	-0.07
CC(C)(C)OC(=O)C1=C[C@@](C)(C(=O)OCC#Cc2ccncc2)CCC1=O	MAPK8	D-peptide binding, inhibitor, FP peptide displacement		200 µM	lower is stronger displacement	fraction bound	0.117
O=C(c1ccccc1Cl)N1CCN(CC(OCc2ccc3ccccc3c2)c2ccc(Cl)cc2Cl)CC1 (stereo not shown)	Serine/threonine-protein kinase ULK1 (ULK1, Homo sapiens, UniProt O75385)	enzyme activity, inhibitor, ADP detection		0.1 µM		activity vs control	102%
CCCC1(CCC)C(=O)N(c2cccc(CN3CCN(Cc4ccc(Br)cc4)CC3)c2)C1=O	Dipeptidyl peptidase 8 (Homo sapiens, UniProt Q6V1X1)	enzyme activity, inhibitor		5 µM		activity vs control	62%
CC(C)Oc1cc(Cl)ccc1CNc1cc(-c2ccccc2)nc2ncnn12	G-protein coupled receptor 3 (GPR3, Homo sapiens, UniProt P46089)	cAMP reporter	human cells	100 µM	higher is more cAMP	cAMP luminescence	28700 a.u. and 4130 a.u. and 2440 a.u. and 686 a.u. and 3780 a.u. and 1130 a.u.
O=C(Cc1ccc(OCc2ccccc2)cc1)NC1(C(=O)O)CCN(C(=O)c2ccc(-c3cccc(Cl)c3)cc2)CC1	Transcription initiation factor TFIID subunit 1-like (TAF1L, Homo sapiens, UniProt Q8IZX4)	enzyme activity, inhibitor		10 µM		activity vs control	96%
COC1CN([C@H]2CC[C@H]([C@@]3(C)Oc4c(Cl)cc(C(=O)NCc5c(SC)cc(C)[nH]c5=O)c(C)c4O3)CC2)C1	Histone-lysine N-methyltransferase EZH2 (EZH2, Homo sapiens, UniProt Q15910)	binding		activated PRC2 with H3K27me3 peptide		residence time	138000 min
COC(=O)[C@@]1(Cc2ccccc2)C=C(C(=O)OC(C)(C)C)C(=O)CC1	MAPK8	D-peptide binding, inhibitor, FP peptide displacement		125 µM	lower is stronger displacement	fraction bound	-0.0933
O=C(O)c1ccc(OP(=O)(O)O)c(CN2CCC(=C3c4ccc(Cl)cc4CCc4cccnc43)CC2)c1	Alkaline phosphatase, placental type (Homo sapiens, UniProt P05187)	substrate		100 µM, pH 7.6, 37 °C		drug formation rate	1.53 pmol/min
CC(C)[C@@H]1NC(=O)[C@H](Cc2ccccc2)NC(=O)CSC[C@@H](C(N)=O)NC(=O)[C@H](CCC(=O)O)NC(=O)[C@H](CO)NC(=O)[C@H](Cc2c[nH]c3cccc(Cl)c23)NC(=O)[C@H](C2CCCCC2)NC(=O)[C@H](C(C)C)NC(=O)[C@H](Cc2ccc(O)cc2)NC(=O)[C@H](CC(=O)O)NC(=O)[C@H](Cc2c[nH]c3ccccc23)NC(=O)[C@H](Cc2ccc(N)nc2)NC(=O)[C@H](Cc2c[nH]c3ccc(Cl)cc23)NC(=O)[C@H](CCC(=O)O)NC1=O	Interleukin-1 receptor-like 2 (IL1RL2, Homo sapiens, UniProt Q9HB29)	reporter gene (SEAP), inhibitor, HEK-Blue IL-36R reporter	HEK-Blue IL-36R cells	33.33 µM, 6 h, with: IL-36γ 10 ng/mL		remaining activity	65.4%

Repeated from above:
SMILES	tested on	test	system	conditions	scale	quantity	value
Cc1ncsc1-c1ccc(C(C)NC(=O)C2CC(O)CN2C(=O)C(NC(=O)CCCCCCCCCCN2CCCC(Nc3ncc(Cl)c(Nc4ccccc4S(=O)(=O)C(C)C)n3)C2)C(C)(C)C)cc1 (stereo not shown)	22Rv1	RNA-seq, refers to: RIMBP3 mRNA		concentration not given	relative to: DMSO	log2 fold change	-6.21
CC(C)Oc1cc(Cl)ccc1CNc1cc(-c2ccccc2)nc2ncnn12	G-protein coupled receptor 3 (GPR3, Homo sapiens, UniProt P46089)	cAMP reporter	human cells	100 µM	higher is more cAMP	cAMP luminescence	28700 a.u. and 4130 a.u. and 2440 a.u. and 686 a.u. and 3780 a.u. and 1130 a.u.
CCCC1(CCC)C(=O)N(c2cccc(CN3CCN(Cc4ccc(Br)cc4)CC3)c2)C1=O	Dipeptidyl peptidase 8 (Homo sapiens, UniProt Q6V1X1)	enzyme activity, inhibitor		5 µM		activity vs control	62%
